# Experimental data from different studies.
# Each numbered part is a random draw from the data of one study; scales do not carry over between parts.

# Sample 1
# Target: Interferon regulatory factor 5, full length, phosphomimetic (IRF5, Homo sapiens, UniProt Q13568-2, residues 1-514, K96S/S451D/S453D/S456D/S462D)
# Method: protein-binding microarray
# Molecule type: double-stranded DNA, one strand shown
# Medium: in vitro
# Concentration: 250 nM
# Notes: 60-bp whole probe
# Together with: salmon DNA 0.4 mg/ml
# Relative to: random background probes
# Direction: higher = stronger binding
# Shared flanks, not repeated: GCCTAGCAC … GTCTTGATTCGCTTGACGCTGCTG
Oligonucleotide,log fluorescence [z-score]
GACGGACTGCTTCTCATGACGTGCTAG,-0.474
GACGGTCTCCTACTGCTGGCGTGCTAG,-0.609
GACGGACTGGACTTTTGGGACGTGCTA,-0.123
GACGAACTGAGTATGGAGACGTGCTAG,-0.535
GACAGTTTCCTTCTCCTGACGTGCTAG,1.66
TCATATGTGTATATATAACTGTGCTAG,0.599

# Sample 2
# Target: Sal-like protein 4, full length isoform B (SALL4, Homo sapiens, UniProt Q9UJQ4-2, residues 1-616)
# Method: universal PBM
# Molecule type: double-stranded DNA, one strand shown
# Medium: in vitro
# Concentration: not given
# Notes: 8-mer, flanks averaged, mean of replicates
# Direction: higher = stronger binding
# Construct (chain): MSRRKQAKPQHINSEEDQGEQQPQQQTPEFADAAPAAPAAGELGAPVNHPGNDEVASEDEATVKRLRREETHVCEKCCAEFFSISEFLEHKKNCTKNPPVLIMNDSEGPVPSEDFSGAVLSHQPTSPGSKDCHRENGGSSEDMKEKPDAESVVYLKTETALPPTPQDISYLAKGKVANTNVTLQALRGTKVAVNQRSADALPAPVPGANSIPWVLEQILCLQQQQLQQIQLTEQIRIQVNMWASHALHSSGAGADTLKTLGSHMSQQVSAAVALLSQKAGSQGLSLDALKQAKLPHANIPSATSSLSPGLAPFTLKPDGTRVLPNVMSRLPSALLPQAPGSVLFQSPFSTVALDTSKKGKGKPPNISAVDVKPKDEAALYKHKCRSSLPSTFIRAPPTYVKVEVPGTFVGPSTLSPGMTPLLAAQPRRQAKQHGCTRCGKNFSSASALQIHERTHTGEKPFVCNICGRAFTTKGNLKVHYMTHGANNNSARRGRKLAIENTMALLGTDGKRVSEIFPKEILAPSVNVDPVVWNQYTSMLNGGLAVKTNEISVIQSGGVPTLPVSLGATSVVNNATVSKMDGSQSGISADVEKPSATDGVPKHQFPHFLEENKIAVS
Oligonucleotide,E-score
GCCTCGTA,-0.0312
AAATTACA,0.317
CAGATAGC,-0.171
CATACGGG,-0.151

# Sample 3
# Target: Histone acetyltransferase KAT6A, winged helix 2, GST fusion (KAT6A, Homo sapiens, UniProt Q92794, residues 85-181)
# Method: protein binding microarray
# Molecule type: double-stranded DNA, one strand shown
# Medium: in vitro
# Concentration: not given
# Notes: 8-mer, flanks averaged, mean of 2 arrays, mostly near background
# Relative to: not given
# Direction: higher = stronger binding
# Construct (chain): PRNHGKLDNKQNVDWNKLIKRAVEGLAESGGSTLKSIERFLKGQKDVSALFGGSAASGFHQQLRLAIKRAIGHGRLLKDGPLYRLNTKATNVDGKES
Oligonucleotide,E-score
ATAGGTAC,-0.26
ACGGCCGC,0.194
CACAAAAC,0.12
ACAAAGGA,-0.0669

# Further values, each from its own experiment
Substance,target,assay,test system,conditions,scale,measurement,value
"PhoQ, residues 284 288 289 292 302 303 HSSMNL","PhoP, residues 12 14 15 18 19 LFHKL (Escherichia coli, UniProt P23836)","Sort-seq, measured: YFP reporter",E. coli,"PhoQ-PhoP variant library, together with: 10 µM Mg2+","relative to: high Mg2+ state, higher = stronger signaling",fold induction,7.37
